Experimental data pooled from the literature.
Compare with care: the assays were run in different laboratories. ± gives the spread as reported.

SMILES	technique	sample	pH	temperature	notes	logP
CN1C(C(=O)Nc2cccc(F)n2)=C(O)c2ccccc2S1(=O)=O	shake-flask, potentiometric	1-octanol/water	–	–	–	3.1
Cc1nc(N)sc1-c1ccnc(Nc2ccc(N(C)C)cc2)n1	–	octanol/buffer	pH 11	–	–	3.25
C=Cc1c(C)c2cc3nc(c4c5[nH]c(cc6nc(cc1[nH]2)C(C)=C6CC)c(C)c5C(=O)C4)[C@@H](CCC(=O)OC)[C@@H]3C	shake flask	octanol/water 1:2	–	–	–	0.863
O=C1Nc2ccc3ncsc3c2/C1=C/Nc1ccc2c(c1)CS(=O)(=O)C2	–	octanol/buffer, 40 mM buffer	pH 11	–	–	2.52
Cc1ncc2c(c1O)COC2c1ccc(Cl)cc1 (stereo not drawn)	shake-flask, potentiometric	1-octanol/water	–	–	–	2.2
COC(=O)/C=C/C(=O)NNC(=O)CCc1ccccc1C(=O)N[C@H](C)c1cccc(-c2cn[nH]c2)c1	–	–	–	–	–	1.6
O=C(Cn1c(NCCO)nc2ccccc21)c1cccc([N+](=O)[O-])c1	–	octanol/buffer	pH 11	–	known kinase inactives set	1.79
O=C(O)CNC(=O)c1ncc(-c2cccc(Cl)c2)cc1O	shake-flask, potentiometric	1-octanol/water	–	–	–	3.3
Cc1c(NS(=O)(=O)c2cccc3nonc23)c(=O)n(-c2ccccc2)n1C	–	octanol/buffer	pH 11	–	–	-0.81
C[C@@H](NC(=O)c1ccccc1CCC(=O)NNC(=O)/C=C/C(=O)O)c1cccc2ccccc12	–	–	–	–	–	2.8
C=Cc1c(C)c2cc3nc(c4c5[nH]c(cc6nc(cc1[nH]2)C(C)=C6CC)c(C)c5C(=O)C4)[C@@H](CCC(=O)O)[C@@H]3C	shake flask	octanol/water 2:1	–	–	–	0.302
O=C(O)CNC(=O)c1nc(Cl)c2ccccc2c1O	shake-flask, potentiometric	1-octanol/water	–	–	–	4.1
COC(=O)/C=C\C(=O)NNC(=O)CCc1ccccc1C(=O)N[C@H](C)c1cccc2ccccc12	–	–	–	–	–	3
Cc1nc(C)c(-c2ccnc(N)n2)s1	–	octanol/buffer	pH 11	–	–	1.59
CCCCCCCC/C=C\CCCCCCCC(=O)O.Cc1cc(/C=C/C#N)cc(C)c1Nc1ccnc(Nc2ccc(C#N)cc2)n1	–	octanol/water	–	room temperature	–	0.89 ± 0.07

Some of these lines once more:
SMILES	technique	sample	pH	temperature	notes	logP
CN1C(C(=O)Nc2cccc(F)n2)=C(O)c2ccccc2S1(=O)=O	shake-flask, potentiometric	1-octanol/water	–	–	–	3.1
Cc1nc(N)sc1-c1ccnc(Nc2ccc(N(C)C)cc2)n1	–	octanol/buffer	pH 11	–	–	3.25
